Experimental data of several laboratories.
Numbered parts are unrelated; each lists some results of a single study. Substitutions count along the parent as printed.

Series 1
Target: Transcription factor SOX-2, HMG box (Sox2, Mus musculus, UniProt P48432, residues 41-119)
UniProt P48432, sequence (41-119, looked up): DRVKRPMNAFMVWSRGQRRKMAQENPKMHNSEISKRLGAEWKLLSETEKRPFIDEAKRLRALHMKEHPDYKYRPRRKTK
Method: Spec-seq
Molecule type: double-stranded DNA, one strand shown
Matrix: in vitro
Concentration: not given
Notes: whole probe, mean of replicates
Reference: not given
Direction: lower = stronger binding
All sequences stand within: GAGTCGTCTCGTCAGCAC … CCGTAGAGCACTCAGGTC
Oligonucleotide | relative binding energy [ln ratio]
ATAGGTT | 0.227
CATTCGA | -0.229
CATCGTA | 0.567
TACAGTT | -0.107
CATAAAC | -0.321
TAACGTT | 0.767
CATTATT | -2.15
GTGAGTT | 1.17
GGGCGTT | 1.69
TCGTGTT | 0.592
TGTGGTT | 0.296
CATCGAT | 0.574
CATTTTA | -0.258
CATGAAA | -0.0357
CATTTAG | -0.53
CATCCCC | 1.36
GAAGGTT | 1.23

Series 2
Target: RNA binding protein fox-1 homolog 2, RRM domain, GST-SBP tag (RBFOX2, Homo sapiens, UniProt O43251-10, residues 100-194)
Method: RNA Bind-n-Seq
Molecule type: RNA
Matrix: in vitro
Concentration: 365 nM
Notes: natural RNA segment, single round, ends assumed
Reference: no-protein control
Direction: higher = stronger binding
Construct (chain): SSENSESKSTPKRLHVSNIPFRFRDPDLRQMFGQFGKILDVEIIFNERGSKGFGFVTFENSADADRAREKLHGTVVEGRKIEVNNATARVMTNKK
Oligonucleotide | RBNS enrichment (R)
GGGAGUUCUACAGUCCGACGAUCUUGCCUGGACUGCUGGAAACACUAGGUCUCCUGUGCGUGUGUGGAAAGGUAAUAGUGGCACAAUGUUGCUAACUUUAGACAACUUUUAAUAAAUAUGGUUUCGUAAAGAAUGGAAUUCUCGGGUGCCAA | 1.13
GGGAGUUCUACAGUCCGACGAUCUAUGUAUUCUUCUCUACCGUAUAACACACUGAAACUGUAUCUACUUGCUGUGUUGCAAUAUUUUGCUGCUGGACUUUGACCUACUUGUAUUAUGCAGAAAGUUAAUGCAGUGGAAUUCUCGGGUGCCAA | 0.505
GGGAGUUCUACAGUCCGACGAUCGCUGCCUUUUAAAAAACCCACAAAAUGCUGAUUCAGUUCAAAAUUAAUGCAAAUGUUUCAAAACUGGGUUUCUGAUAUUUGUAAAUGUGUUUCUUUAUUAGAUAAGAGUGUGGAAUUCUCGGGUGCCAA | 0.846
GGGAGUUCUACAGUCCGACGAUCUUUAAACUCAGGAAUGCACACCUAACUUGUGAAGCAGUAUUAAUGGAUCUGAAAGCAACAAUCGCCAGCCCCUACUGUCGUACCAGUAGAAACCUCAUCUUGGGUACAAGUGGAAUUCUCGGGUGCCAA | 2.15
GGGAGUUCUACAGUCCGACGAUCAAAACAGCUUGCACGGUGCUAAGCUGGGGCCCACCUAGCUUGUUUCAUUGUUGGGAAAUAAAACAUCAAGAACAAAAACAUUUGUGGUUGUGAGAAUGUCUCAGUGUAAUUGGAAUUCUCGGGUGCCAA | 1.23
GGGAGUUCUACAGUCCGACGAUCUUGGACCCUGAAACAGAACAGGUGAAUGGAUUAUUCUAACAGGUCACCAUCCAUCUUCAAGAAGCUACUUUGAAAGUCUGGCCAGUGUCUAUUCAGGCCCACUGGGAGUUUGGAAUUCUCGGGUGCCAA | 0.333
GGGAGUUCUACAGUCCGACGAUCGAAUUUAGGAGUGAUGUGUGACAUUUCUGACAUGGAGUUACCAUCCCCACAUGUAUCACAUACUGUCAUAUUCCCACAUGUAUCACACAUGUAUUGUAAAAUUUUGUAGUUGGAAUUCUCGGGUGCCAA | 1.14
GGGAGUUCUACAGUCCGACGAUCUCAGCAUUAUCCUGCCAGACCUCGGGGAGGAUACCUGGGAGACAGAAGCCUCUGCACCUACUGUGCAGAACUCUCCACUUCCCCAACCCUCCCCAGGUGGGCAGGGCGGAUGGAAUUCUCGGGUGCCAA | 0.232
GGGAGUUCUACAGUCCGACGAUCGAAGCAGUAACAUUUUUCUCAGUGCACAUGCAAUUUGGGUUUUAGAGAAGAUGGCCACCAGCUGGCUUCCUAGAUAUUUUAAACUUUUGUUCUUUAAUAUGCUGUCCAUGUGGAAUUCUCGGGUGCCAA | 0.355
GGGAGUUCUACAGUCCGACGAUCUGUGAUUUUUAACACAUAUAUUUCUUCCAUAUUCAGAUUGGCAUUCAUAUAUGUAUCCAUUCUGUAGAACACAUCAUGUUAAUAUAGUAUACAUUUAAAAAAAUACUACUUGGAAUUCUCGGGUGCCAA | 0.339
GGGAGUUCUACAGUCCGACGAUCAGAGGCAUUAGACUAUUUUUUAGCUGCCCUCAUAAAUAUAUAACGAAUAGGUAAAUGCCAAUACCCAUACAGUUUUUCUAGUGGGGACAAAGGCCGUUUUAUUAGAAAUUUGGAAUUCUCGGGUGCCAA | 0.443
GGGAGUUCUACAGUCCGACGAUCUAUACUUCCCUAACCUGGAUCCCUGCUCUGCAAUGAGGUGGCCGUGGUUACACCAUCAUCUACCCUCUAGCUAGGGAUGAGGUGGAGGUAAAAUGCUCCCUGUGAGUUUGUGGAAUUCUCGGGUGCCAA | 0.252

Series 3
Target: DBP, bZIP domain (human)
Method: DHFR protein complementation
Matrix: yeast
Notes: single substitutions, most at no-binding floor
Reference: wild-type JUN-FOS pair
Direction: higher = stronger binding
Starting sequence: JUN, bZIP domain (human); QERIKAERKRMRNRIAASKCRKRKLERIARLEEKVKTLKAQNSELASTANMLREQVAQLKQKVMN; partner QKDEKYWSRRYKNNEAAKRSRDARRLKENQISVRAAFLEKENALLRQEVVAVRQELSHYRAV
Change | binding fitness
T48F | -1.29 natural log
A40Y | -1.23 natural log
S47L | -1.53 natural log
I28Y | -1.43 natural log
L52P | -1.49 natural log
L31G | -1.43 natural log
K39R | -1.27 natural log
A40W | -1.5 natural log
S43E | -1.49 natural log
T48E | -1.49 natural log
E32W | -1.47 natural log
V35G | -1.52 natural log
R53Y | -1.49 natural log
K36C | -1.3 natural log

Series 4
Target: human cyclin A2
Effect on: peptide binding
Method: competitive growth sequencing
Molecule type: peptide
Organism: Saccharomyces cerevisiae
Strain: cyclin A2-Cln2 fusion strain
Concentration: concentration not given
Notes: peptide tiling library
Reference: unfused Cln2 strain
Direction: direction not given
Molecule | binding score
TARRIFQEPTEPKTKA | 1.11
ASVLSKPIFCFVKD | 0.086
FREFEVEKQTAEETGL | 0.941
VLLKRLQDVVSERANH | 0.112
KPSACANAFGPVDHEE | -0.302
IVLICAKRSLCAAFSV | 0.526
GQLVIPLDELTLDTSF | 0.42
KPITLDTTDFQESFVT | -0.0297
PAKRRLELGE | 2.21
LRRQLSFSED | 0.839
MNQELLSVGSKRRRTG | 0.285
EPRNLLSLFEDTLDPT | 2.14
QDYERRLLRQIVIQNE | 0.466
GTPKRCLDLSNLSSGE | 0.285
SAVPLILPQAPSGPSY | 0.488

Series 5
Target: ABI1, truncated, D143A, DHFR fusion (Arabidopsis thaliana)
Method: DHFR PCA, deep sequencing
Matrix: yeast
Notes: methotrexate growth selection, single substitutions
With: (+)-ABA 4.8 µM
Reference: wild-type fitted maximum
Direction: higher = stronger binding
Starting sequence: PYL1, truncated, DHFR fusion (Arabidopsis thaliana); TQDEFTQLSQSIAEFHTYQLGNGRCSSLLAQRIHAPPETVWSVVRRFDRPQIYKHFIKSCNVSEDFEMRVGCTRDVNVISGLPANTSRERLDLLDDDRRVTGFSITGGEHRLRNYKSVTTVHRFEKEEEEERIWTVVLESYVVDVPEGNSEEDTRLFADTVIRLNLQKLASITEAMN; partner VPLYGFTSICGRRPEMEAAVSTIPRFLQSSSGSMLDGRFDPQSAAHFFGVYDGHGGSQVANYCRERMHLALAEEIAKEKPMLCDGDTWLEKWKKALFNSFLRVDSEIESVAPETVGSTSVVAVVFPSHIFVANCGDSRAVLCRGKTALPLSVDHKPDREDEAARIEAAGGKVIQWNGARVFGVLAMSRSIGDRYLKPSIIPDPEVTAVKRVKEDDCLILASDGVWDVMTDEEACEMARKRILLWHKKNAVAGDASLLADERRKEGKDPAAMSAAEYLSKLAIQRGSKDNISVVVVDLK
Change | relative binding score
V145C | 48.7%
D153G | -6.02%
P83H | 3.26%
T1H | 71.5%
P146W | -1.86%
T154N | 3.51%
A170G | 34.9%
V100K | -12.4%
D97T | 76.4%
I162H | 0.965%
L156E | 36.4%
G148R | 3.75%
S9P | 23.6%
A30Q | 65.4%

Series 6
Target: Histone acetyltransferase KAT6A, both winged helices, GST fusion (KAT6A, Homo sapiens, UniProt Q92794, residues 1-181)
Method: protein binding microarray
Molecule type: double-stranded DNA, one strand shown
Matrix: in vitro
Concentration: not given
Notes: 8-mer, flanks averaged, mean of 2 arrays, mostly near background
Reference: not given
Direction: higher = stronger binding
Residues (chain): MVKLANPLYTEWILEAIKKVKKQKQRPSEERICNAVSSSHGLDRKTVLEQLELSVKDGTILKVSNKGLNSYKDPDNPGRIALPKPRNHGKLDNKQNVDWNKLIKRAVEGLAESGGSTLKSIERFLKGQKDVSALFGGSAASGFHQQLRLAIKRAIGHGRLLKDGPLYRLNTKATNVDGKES
Oligonucleotide | E-score
AATACGAC | -0.134
AGGAGCGC | 0.233
TCGGATAA | 0.116
CGCTTCAA | 0.173
CCCCACCG | 0.0598
ATAGTATA | -0.0416
GAATATGC | 0.0578
GGCGCCAA | 0.198
CCTTTCGA | -0.0338
CACCTCCC | -0.0909
ATTACGTG | -0.119
AACACGTC | 0.00766
ATTGAGTA | -0.114
CGCGATAA | 0.122
ACGTCCAT | -0.0524
GGTAAACC | 0.0677
CCTTTCTA | 0.0518

Series 7
Target: Sal-like protein 4, full length isoform A (SALL4, Homo sapiens, UniProt Q9UJQ4, residues 1-1053)
UniProt Q9UJQ4, sequence (whole entry, looked up): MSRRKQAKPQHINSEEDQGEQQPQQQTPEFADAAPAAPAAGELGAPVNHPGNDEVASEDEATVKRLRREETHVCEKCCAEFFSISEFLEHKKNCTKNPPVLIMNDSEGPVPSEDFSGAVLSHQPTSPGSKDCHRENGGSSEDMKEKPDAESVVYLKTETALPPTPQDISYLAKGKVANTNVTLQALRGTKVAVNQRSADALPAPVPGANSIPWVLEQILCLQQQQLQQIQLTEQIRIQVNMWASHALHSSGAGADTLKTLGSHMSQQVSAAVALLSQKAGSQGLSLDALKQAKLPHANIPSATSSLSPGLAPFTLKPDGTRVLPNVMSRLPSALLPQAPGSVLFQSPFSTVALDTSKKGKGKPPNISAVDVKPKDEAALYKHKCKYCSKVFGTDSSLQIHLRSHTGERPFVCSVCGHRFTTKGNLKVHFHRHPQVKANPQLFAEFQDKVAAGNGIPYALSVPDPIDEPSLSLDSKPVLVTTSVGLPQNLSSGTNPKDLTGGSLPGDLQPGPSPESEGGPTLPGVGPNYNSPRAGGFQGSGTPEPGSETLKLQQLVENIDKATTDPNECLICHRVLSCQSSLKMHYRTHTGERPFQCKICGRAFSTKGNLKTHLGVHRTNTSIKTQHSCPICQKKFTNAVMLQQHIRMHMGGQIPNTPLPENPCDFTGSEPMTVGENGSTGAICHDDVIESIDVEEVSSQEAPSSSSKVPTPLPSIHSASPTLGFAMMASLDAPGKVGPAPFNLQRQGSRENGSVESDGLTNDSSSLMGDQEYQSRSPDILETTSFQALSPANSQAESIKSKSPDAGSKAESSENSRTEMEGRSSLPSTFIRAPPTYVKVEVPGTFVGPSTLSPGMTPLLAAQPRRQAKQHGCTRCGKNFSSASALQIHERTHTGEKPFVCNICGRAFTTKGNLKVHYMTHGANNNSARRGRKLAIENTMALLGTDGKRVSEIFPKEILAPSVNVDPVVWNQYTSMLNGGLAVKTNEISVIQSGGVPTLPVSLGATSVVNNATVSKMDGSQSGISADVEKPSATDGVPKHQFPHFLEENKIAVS
Method: universal PBM
Molecule type: double-stranded DNA, one strand shown
Matrix: in vitro
Concentration: 600 nM
Notes: 8-mer, flanks averaged, mean of replicates
Direction: higher = stronger binding
Oligonucleotide | E-score
ATCTTTAA | 0.271
GGTCGCAC | -0.233
AGCCAGGC | -0.312
TCTTATCA | 0.277
ACAAGTTC | -0.031
AGCTGGCC | -0.211
AGCTCCGG | -0.241
ACCATCAC | 0.0201
GATCAATA | 0.378
TTCTGAAA | 0.214
ACTCTCAC | -0.0623
GGTGTCCA | -0.211
CTTAGCAC | -0.0288
CAGCATCA | 0.022
CAATCACG | 0.124
AGTCCAGG | -0.228
AACCCCAC | -0.223
AAACGTCA | 0.103

Series 8
Target: Ras GTPase-activating protein-binding protein 1, full length (G3BP1, Homo sapiens, UniProt Q13283)
UniProt Q13283, sequence (whole entry, looked up): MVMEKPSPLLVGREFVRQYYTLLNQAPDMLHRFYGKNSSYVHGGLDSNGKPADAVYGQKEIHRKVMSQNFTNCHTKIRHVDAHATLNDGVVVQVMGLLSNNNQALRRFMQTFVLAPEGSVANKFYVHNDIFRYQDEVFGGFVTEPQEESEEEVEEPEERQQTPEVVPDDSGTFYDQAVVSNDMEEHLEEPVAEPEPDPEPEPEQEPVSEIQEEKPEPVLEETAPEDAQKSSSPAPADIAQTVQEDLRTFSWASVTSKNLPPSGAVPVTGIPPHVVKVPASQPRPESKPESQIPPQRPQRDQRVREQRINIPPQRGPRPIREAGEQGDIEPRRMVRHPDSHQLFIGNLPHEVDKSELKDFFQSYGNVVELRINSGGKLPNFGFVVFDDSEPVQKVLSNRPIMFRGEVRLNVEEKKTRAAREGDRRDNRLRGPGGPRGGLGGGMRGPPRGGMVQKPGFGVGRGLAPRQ
Method: RNA Bind-n-Seq
Molecule type: RNA
Matrix: in vitro
Concentration: 200 nM
Notes: whole 134-nt RNA, ends assumed
With: 150 mM LiCl
Reference: input library
Direction: higher = stronger binding
All molecules: 7-deaza-guanosine replaces G
Oligonucleotide | log2 enrichment
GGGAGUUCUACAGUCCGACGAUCGCAGGAAGUAAAAACAAAUGGAAAUGCUUCGGAUAGUGGCAGGGGUGGGGGUUGCUAAGGAAAGGGUGGGAAAGGAGUGGGUAAAGAGUUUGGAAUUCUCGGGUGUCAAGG | 0.372
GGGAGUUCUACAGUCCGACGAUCUAACUUUAGAGGAGGAUCUAAUGGAUAUGGCAGUGGACGUGGAUUUGGGGAUGGCUAUAAUGGGUAUGGAGGAGGACCUGGAGGUGGCAAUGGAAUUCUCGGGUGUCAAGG | -0.0271
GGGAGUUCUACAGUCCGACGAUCGCAGGAAGUAAAAACAAAUAGAAAUGCUUCGGAUAGUGGCAGGGGUGGGGGUUGCUAAGGAAAGGGUGGGAUGGGAGUGGGUAAAGAGUUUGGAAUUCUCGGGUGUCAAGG | -0.266
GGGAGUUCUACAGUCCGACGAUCACCAUGCAGGUGGGCAUCUUUGGGAAGUGGGGCGAGGGGGGGAUAGGGAGGGGGGUAACACUUUGGGAACAGGUGGUCCCAGGUCGUUUCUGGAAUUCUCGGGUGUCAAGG | 0.134
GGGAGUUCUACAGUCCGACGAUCUUUUAUUCUUCCAUCUUUUCCCACAGGUGGCAGCUGCCAACAAGAAGCAUUAGAACAAACCAUGCUGGGUUAAUAAAUUGCCUCAUUCGUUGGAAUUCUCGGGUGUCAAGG | 1.49
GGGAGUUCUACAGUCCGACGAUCUGGCCCUGGUGGCAUGCGGGGAGGAAGAGGUGGCCUCAUGGAUCGUGGUGGUCCCGGUGGAAUGUUCAGAGGUGGCCGUGGUCGAGACAGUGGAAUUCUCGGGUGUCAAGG | -0.22
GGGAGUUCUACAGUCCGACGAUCCAACUUUAGAGGAGGAUCUGAUGGAUAUGGCAGUGGACGUGGAUUUGGGGAUGGCUAUAAUGGGUAUGGAGGAGGACCUGGAGGUGGCAAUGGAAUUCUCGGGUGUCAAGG | 0.282

Repeated from above (series 7):
Oligonucleotide | E-score
AGCTGGCC | -0.211
AGCTCCGG | -0.241
ACCATCAC | 0.0201
GATCAATA | 0.378
TTCTGAAA | 0.214
ACTCTCAC | -0.0623
GGTGTCCA | -0.211
CTTAGCAC | -0.0288
CAGCATCA | 0.022
CAATCACG | 0.124
AGTCCAGG | -0.228
AACCCCAC | -0.223
AAACGTCA | 0.103
